Results from different studies.
Protocols differ between the studies behind these lines.
Cell line: IGROV-1

For `COC(=O)/C=C1\C(=O)C=C2C3CC4CC(CCC4(C)N21)C3(C)NC(C)=O` (stereo not drawn), the IC50 was 20 µM (cell growth; NCI screen).
The TGI of `C#C[C@@]1(O)[C@@H](CO)O[C@@H](n2cc(Br)c3c(N)ncnc32)[C@@H]1O` is reported as 0.485 µM (SRB; NCI-60 screen).
`CCCC(CCC)C(=O)OCc1cn(-c2c3ccccc3nc3ccccc23)nn1` has a growth of 95.8% (NCI60 single dose; 10 µM).
`Cc1cc(-c2ccccc2)n(-c2nc(-c3ccc(Cl)cc3)c3c(NC(=O)c4ccccc4)nnc-3[nH]2)n1` gave a cell growth of 98.4% (SRB; 10 µM, NCI60 single-dose screen; baseline: untreated).
`CCCN1CCN(c2ccc3nc(-c4ccc5nc(-c6cc(OC)ccc6OC)[nH]c5c4)[nH]c3c2)CC1` gave a growth percent of 103% (SRB; 10 µM, 48 h).
`Cc1cc(C)n(C(=S)[S][Au][PH](CCCCCC[PH]([Au][S]C(=S)n2nc(C)cc2C)(c2ccccc2)c2ccccc2)(c2ccccc2)c2ccccc2)n1` has a log10 TGI of -5.27 (cell growth, NCI-60 screen; ovarian cancer).
For `CCCN1CCN(c2ccc3[nH]c(-c4ccc5[nH]c(-c6ccc(OCC)c(OCC)c6)nc5c4)nc3c2)CC1`, the growth percent was -13.2% (SRB; 10 µM, 48 h).
The TGI of `Cn1cncc1C1=CN(c2ncnc3[nH]cnc23)CCS1` is reported as 195 µM (ovarian cancer).
For `Cc1n[nH]c2nc(-c3ccc(Cl)cc3)c3c(NC(=O)c4ccccc4)nnc-3n12`, the cell growth was 109% (SRB; 10 µM, NCI60 single-dose screen; baseline: untreated).
`CCCCN1CCN(c2ccc3[nH]c(-c4ccc5[nH]c(-c6ccc(OCC)c(OCC)c6)nc5c4)nc3c2)CC1` gave a growth percent of 15.1% (SRB; 10 µM, 48 h).
The cell growth of `CSc1nc(-c2ccc(Cl)cc2)c2c(NC(=O)c3ccccc3)nnc-2[nH]1` is reported as 104% (SRB; 10 µM, NCI60 single-dose screen; baseline: untreated).
`CCCN1CCN(c2ccc3[nH]c(-c4ccc5[nH]c(-c6ccc(C(F)(F)F)cc6)nc5c4)nc3c2)CC1` has a growth percent of -83.5% (SRB; 10 µM, 48 h).
The cell growth of `Cc1cc(C)n(-c2nc(-c3ccc(Cl)cc3)c3c(NC(=O)c4ccccc4)nnc-3[nH]2)n1` is reported as 115% (SRB; 10 µM, NCI60 single-dose screen; baseline: untreated).
For `O=C1NCCc2[nH]c(-c3ccncc3)cc21`, the IC50 was > 10 µM (MTS; NCI60 panel).
For `CN1CCN(c2ccc3[nH]c(-c4ccc5[nH]c(-c6ccc(C(F)(F)F)cc6)nc5c4)nc3c2)CC1`, the growth percent was 71.2% (SRB; 10 µM, 48 h).
The growth of `Cc1cc(=O)[nH]c(=O)n1Cc1cn(-c2c3ccccc3nc3ccccc23)nn1` is reported as 33% (NCI60 single dose; 10 µM).
`O=C(Nc1nnc2n3c(Cc4ccccc4)n[nH]c3nc(-c3ccc(Cl)cc3)c1-2)c1ccccc1` gave a cell growth of 118% (SRB; 10 µM, NCI60 single-dose screen; baseline: untreated).
`C#C[C@@]1(O)[C@@H](CO)O[C@@H](n2ccc3c(N)ncnc32)[C@@H]1O` gave a TGI of 5.85 µM (SRB; NCI-60 screen).
For `CCCCN1CCN(c2ccc3[nH]c(-c4ccc5[nH]c(-c6ccc(C(F)(F)F)cc6)nc5c4)nc3c2)CC1`, the growth percent was -82.3% (SRB; 10 µM, 48 h).
The growth of `O=c1ccn(Cc2cn(-c3c4ccccc4nc4ccccc34)nn2)c(=O)[nH]1` is reported as 80.9% (NCI60 single dose; 10 µM).
For `NNc1nc(-c2ccc(Cl)cc2)c2c(NC(=O)c3ccccc3)nnc-2[nH]1`, the cell growth was 100% (SRB; 10 µM, NCI60 single-dose screen; baseline: untreated).

Repeated from above:
`Cc1cc(-c2ccccc2)n(-c2nc(-c3ccc(Cl)cc3)c3c(NC(=O)c4ccccc4)nnc-3[nH]2)n1` gave a cell growth of 98.4% (SRB; 10 µM, NCI60 single-dose screen; baseline: untreated).
`CCCN1CCN(c2ccc3nc(-c4ccc5nc(-c6cc(OC)ccc6OC)[nH]c5c4)[nH]c3c2)CC1` gave a growth percent of 103% (SRB; 10 µM, 48 h).
`Cc1cc(C)n(C(=S)[S][Au][PH](CCCCCC[PH]([Au][S]C(=S)n2nc(C)cc2C)(c2ccccc2)c2ccccc2)(c2ccccc2)c2ccccc2)n1` has a log10 TGI of -5.27 (cell growth, NCI-60 screen; ovarian cancer).
